Measured values collected from several papers.
Compare with care: the assays were run in different laboratories. ± gives the spread as reported.
Target: Neutrophil elastase (ELANE, Homo sapiens, UniProt P08246)
Sequence (P08246 30-267, as in one of the studies): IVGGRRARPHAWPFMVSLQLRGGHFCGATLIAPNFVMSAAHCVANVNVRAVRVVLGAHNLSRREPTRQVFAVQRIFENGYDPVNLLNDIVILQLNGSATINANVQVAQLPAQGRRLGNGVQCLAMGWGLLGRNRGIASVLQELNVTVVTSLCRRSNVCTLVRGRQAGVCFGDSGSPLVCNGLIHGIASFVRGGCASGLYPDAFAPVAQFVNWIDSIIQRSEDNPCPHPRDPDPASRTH

`Cc1cc(-c2ccc(/N=N/c3ccc4c(S(=O)(=O)O)cc(S(=O)(=O)O)c(N)c4c3O)c(C)c2)ccc1/N=N/c1ccc2c(S(=O)(=O)O)cc(S(=O)(=O)O)c(N)c2c1O` has a maximal inhibition of 97 ± 3.2% (enzyme activity, inhibitor, chromogenic substrate hydrolysis; pH 7.4, 37 °C, 100 mM NaCl, added: substrate S-1384).
For `Cc1nc2ccccc2n1S(=O)(=O)c1ccc2c(c1)C(=O)CC2=O`, the inhibition was 31.9% (enzyme activity, inhibitor, fluorescence; 50 µM).
For `OB1OCc2ccccc21`, inhibition read “inactive” (enzyme activity, inhibitor, fluorimetric; up to 100 µM).
For `O=C(Nc1ccc(C(=O)Nc2ccc(C(=O)Nc3ccc(S(=O)(=O)O)c4cc(S(=O)(=O)O)cc(S(=O)(=O)O)c34)cc2)cc1)Nc1ccc(C(=O)Nc2ccc(C(=O)Nc3ccc(S(=O)(=O)O)c4cc(S(=O)(=O)O)cc(S(=O)(=O)O)c34)cc2)cc1`, the Km was 216 ± 55.1 µM (substrate S-1384 hydrolysis; pH 7.4, 37 °C, enzyme 300 nM).
`COc1cc(/C=N\C(=S)NNC(=O)CC2C(=O)c3ccccc3C2=O)cc(OC)c1OC` gave an inhibition of 14% (enzyme activity, inhibitor, fluorescence; 0.1 µM).
The SILAC ratio of `CCC1(CC)C(=O)N(c2cccc(CN3CCN(c4cc(C)nc5ccc(Br)cc45)CC3)c2)C1=O` is reported as over 3 (inhibitor, competitive ABPP; U-937 cell lysate; 10 µM, added: FP-biotin 10 µM; relative to: DMSO over compound).
`COc1cc(-c2ccc(/N=N/c3ccc4c(S(=O)(=O)O)cc(S(=O)(=O)O)c(N)c4c3O)c(OC)c2)ccc1/N=N/c1ccc2c(S(=O)(=O)O)cc(S(=O)(=O)O)c(N)c2c1O` has a Hill slope of 1.9 ± 0.4 (enzyme activity, inhibitor, chromogenic substrate hydrolysis; pH 7.4, 37 °C, 100 mM NaCl, added: substrate S-1384).
`Cc1cc(C)cc(NC(=O)Nc2cccc(S(=O)(=O)O)c2)c1` has an inhibition of 41.3% (enzyme activity, inhibitor, fluorescence; 100 µM).
With `Cc1ccc(S(=O)(=O)N2N=Cc3ccsc3B2O)cc1` the ligand efficiency was 0.39 (enzyme activity, inhibitor, fluorimetric).

Some of these lines once more:
`COc1cc(-c2ccc(/N=N/c3ccc4c(S(=O)(=O)O)cc(S(=O)(=O)O)c(N)c4c3O)c(OC)c2)ccc1/N=N/c1ccc2c(S(=O)(=O)O)cc(S(=O)(=O)O)c(N)c2c1O` has a Hill slope of 1.9 ± 0.4 (enzyme activity, inhibitor, chromogenic substrate hydrolysis; pH 7.4, 37 °C, 100 mM NaCl, added: substrate S-1384).
